Experimental data pooled from the literature.
Every numbered part comes from another study and shows a few of its results, in no order.

Block 1 — method: protein binding microarray; molecule type: double-stranded DNA, one strand shown; sample: in vitro; tested at: not given; relative to: not given; direction: higher = stronger binding
Target: Histone acetyltransferase KAT6A, both winged helices, GST fusion (KAT6A, Homo sapiens, UniProt Q92794, residues 1-181)
Setting: 8-mer, flanks averaged, mean of 2 arrays, mostly near background
Target sequence (chain): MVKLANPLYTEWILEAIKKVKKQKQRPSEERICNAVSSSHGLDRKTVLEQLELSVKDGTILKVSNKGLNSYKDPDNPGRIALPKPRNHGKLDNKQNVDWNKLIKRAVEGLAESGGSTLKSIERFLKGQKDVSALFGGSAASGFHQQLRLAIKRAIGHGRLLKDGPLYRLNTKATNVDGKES
With `CAACCAGC` the E-score was -0.0363.
For `GGCGCCAA`, the E-score was 0.198.
`ATTTAAAA` has an E-score of -0.0242.
`CCCATGGG` has an E-score of -0.342.
`AGCGATAT` has an E-score of -0.0414.
For `CCCCGAAA`, the E-score was -0.0925.
`GGGAGAAA` gave an E-score of -0.166.
The E-score of `AAGGTTAT` is reported as -0.133.
`ATGATAAC` has an E-score of -0.116.
The E-score of `CGGAGCCA` is reported as 0.0423.
The E-score of `AGGGCGGG` is reported as 0.237.
For `CCACTGCG`, the E-score was 0.146.
With `CACGGCTA` the E-score was 0.319.
`CGAGGCTA` has an E-score of -0.127.
`CCCTTTCA` gave an E-score of -0.0211.
For `GATGGAAC`, the E-score was -0.148.
The E-score of `GCCATCGC` is reported as 0.205.
`GACCCTAA` gave an E-score of -0.179.
With `ATTGAGTA` the E-score was -0.114.
For `GGGGACCC`, the E-score was -0.0246.
`GCCGTTCA` gave an E-score of 0.195.
`CACGACCA` has an E-score of -0.218.
With `GGGGAGAC` the E-score was -0.0282.
`CGCGTCCC` gave an E-score of 0.2.
For `AGGAGCGC`, the E-score was 0.233.

Block 2 — method: RNA Bind-n-Seq; molecule type: RNA; sample: in vitro; tested at: not given; setting: RNA with constant flanks, ends assumed; relative to: input RNA pool; direction: higher = stronger binding
Target: RING finger protein unkempt homolog, zinc fingers 1-6, GST-SBP tag (UNK, Homo sapiens, UniProt Q9C0B0, residues 30-357)
Chain of UniProt Q9C0B0 (30-357, looked up): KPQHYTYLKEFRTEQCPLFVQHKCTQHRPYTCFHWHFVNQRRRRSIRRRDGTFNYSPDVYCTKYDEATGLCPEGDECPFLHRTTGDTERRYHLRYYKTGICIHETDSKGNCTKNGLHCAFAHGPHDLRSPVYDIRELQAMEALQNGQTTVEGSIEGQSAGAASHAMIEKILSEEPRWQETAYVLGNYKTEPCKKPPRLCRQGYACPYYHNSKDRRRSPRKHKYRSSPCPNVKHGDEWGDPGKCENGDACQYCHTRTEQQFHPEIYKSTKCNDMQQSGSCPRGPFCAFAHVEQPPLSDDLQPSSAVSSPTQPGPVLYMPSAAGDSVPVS
Constant ends, left off below: GGGAGUUCUACAGUCCGACGAUC … CAACAGAGGAUUGAGCAUCA
For `GAGAAAGGAGAGAUGCAGGUUGUCCCAGUUUUGGUGCAUCUCCUGUCUGCUAUCAGCAGUGUCCGGCUUUACAUUCCUAAAGACCUUCGGCCGGUGGACAAUAGACAGAGUGUUUUAAAA`, the bound/input enrichment was 0.394 ratio.
`CAUGACUUAAAUAAUUCUGAAAGAGUUCAGAAAAUGAAAAACUCACAGAAACCUCAGAAGACCGAUUCAGAAAUAAGUCCCAAGAAGGAUAAUGAAGAAUUUCUACAAAAUAAAAAAAAG` gave a bound/input enrichment of 0.14 ratio.
For `AAAGGAAUUACCGAACAGCAAAAAGAAGGUCUUGAGAUAGUGAAAAUGGUGAUGAUAUCUUCCGAAGGUGAAGAUGGGUUGGAUGAAAUUUAUUCAUUCAGUGAGAGUCUGAGAAAACUG`, the bound/input enrichment was 0.424 ratio.
With `UAUGAAGUAUUUCAGACCCAGUUGUAGAUCAUCACUCCGCCACUCUCUCCUUUAUUGCCUACCCGUUAUUUAAAUUGGACUUUUAAUAUCCUACCAGCUGCUCUUCAGACACACAUGGUG` the bound/input enrichment was 1.12 ratio.
`AAUCAAGUUCUAUUCCAGACUAACGGUGGGCCUGGGCUUUAUAUUUUUAUGUAAACUAUUUUCCGACUGGAGGAUUUGGUUUUCAGAGGAAAGCUUUACGCAUAAUUAAACCAUGGGAGU` has a bound/input enrichment of 0.254 ratio.
`AGUAUGAUUAAUACAACAGGUGCCGUGGAUUCAGGGUCCUCCUCCUCUUCCUCCUCUUCCCGUUUUGUGAAUGGUGCUACUAGCAAAAACCUUCCAGCUGUACAAACUGUUGCUCCAAUG` gave a bound/input enrichment of 0.423 ratio.
The bound/input enrichment of `GAAGCUAUUGGAAAGAAUAACCCUCCCCUGAAGUCCCGGAGCUUCUCGCUGGCAUCCCGUGGUAAUUCUCCCAUAUCCCAGCGGAGACCAAGUCAGAAUGCCAUGUCUUUUUUUAAUGUU` is reported as 0.634 ratio.
`AUGGCAACAUCAGAGGCACUUAAAAUUUCAAGAGAGGUAGAUCCAGAUGGUCGCAGAACCCCCGCUGUAAUCACUAAACUUGAUCUCAUGGAUGCGGGUACUGAUGCCAUGGAUGUAUUG` gave a bound/input enrichment of 0.178 ratio.
`ACAAAAAAAUGUUGUAGUUGCAGAACUUAGUUUAUAAAAACAAAGAAUGUGUAUUUCUUCAACCGCCGGGUAUUUGGAUUGUUCUCUUGAUAAUAUUUGAAUGUGACUCUUGGAUUUAAG` gave a bound/input enrichment of 0.934 ratio.
For `GCCAUGGACACAGAAUUUCCAGGUGUUGUGGUGCGACCAAUUGGUGAAUUUCGUAGUUCCACCGAUUACCAAUAUCAGCUUCUGCGGUGCAAUGUUGACCUUUUAAAAAUUAUCCAGCUG`, the bound/input enrichment was 0.125 ratio.
For `GUGACUAUAUAAAUAUCAAAACAUGUUCACUUUGUAGGACAAAAUUAUGUUGAAAAGUUCCCGCUUAAGUGUUGGCACUUUUAUGGGGGGGAAAUCAGUUUUAAAACUAAGACUUCCAUG`, the bound/input enrichment was 0.209 ratio.

Block 3 — method: RNA Bind-n-Seq; molecule type: RNA; sample: in vitro; tested at: 365 nM; relative to: no-protein control; direction: higher = stronger binding
Target: RNA binding protein fox-1 homolog 2, RRM domain, GST-SBP tag (RBFOX2, Homo sapiens, UniProt O43251-10, residues 100-194)
Setting: natural RNA segment, single round, ends assumed
Constant ends, left off below: GGGAGUUCUACAGUCCGACGAUC … UGGAAUUCUCGGGUGCCAA
Residues (chain): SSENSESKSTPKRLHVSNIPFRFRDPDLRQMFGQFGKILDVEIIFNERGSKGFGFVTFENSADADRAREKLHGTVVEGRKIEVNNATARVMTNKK
For `AAUUUAGAGUUUUGAAGAAAUAGUCUCCCUUCAAUUAAGAAAUUUUCAUAAUGGAAUGAUUUAAAUUGAAGUGACAAAGAGUAUUAUUAAAAUACAAUGUUUAUACGUCU`, “RBNS enrichment (R)” read 0.481.
`AUCUUUAAGGCUCAGAUGGGCUCAAAUUGAAACCUUGUGUUUUAUAAAAUGGAUGUUUAGUAAAGGAACUGGUUCUCAGUUAUGUUUACAGCACUUGGAAUUGUGUGUUC` — result for “RBNS enrichment (R)”: 1.24.
For `AGAUUGAUUUAAUUGUGGGCCACAACAGGAGACCUUCUUGGGAAUACAAAUGCAAAAUGCCUUAUACUGAAGCAGUUUUACAUGAAGUUUUAAGAUUCUGUAAUAUAGUU`, “RBNS enrichment (R)” read 0.472.
`CUCUACCAUGGUUCUGCCUCCUGGCCAAGCAGGCUGGUUUGCAAGAAUGAAAUGAAUGAUUCUACAGCUAGGACUUAACCUUGAAAUGGAAAGUCAUGCAAUCCCAUUUG` — result for “RBNS enrichment (R)”: 1.07.
`CAUUCUUCCCCUUGUUGGAUUUCAUACAGGAGCCUGGAGUGAGUGCUACACUAAGAAAGAAAUAGAGUUUGACAUAAGUUGAGAUUUUAGUGUGAUCUGGAUGUGUGAUA` — result for “RBNS enrichment (R)”: 0.771.
For `UCUGCACCCCCAGCAAGAAGGCGAGUUAGUUUUCUAGAGACUUGAAGGAGUCUCCCCCUUCCUGCAUCACCACCUUGGUUUUGUUUUAUUUUGCUUCUUGGUCAAGAAAG`, “RBNS enrichment (R)” read 0.498.
Under “RBNS enrichment (R)”, `GCCCUGGGGCUCAUCAUGAUGCUUUCCUGGAUCUGUUGCUUCAUCUGCAAGCUGAGGGUGUUUGUUCUAGAUGAGUGUCUCAGGCCACCGGCAACUGCAUGUACCUCCUC` is recorded as 4.05.
Under “RBNS enrichment (R)”, `GACACUUGAUAGAAAGACUACUGGUUAAACACAAUAAACAAAGUUCAUUAUUCACUUAUUAGCAAGAAGGUAGCAUUAUCAUAAAGGAUUAGAUGACUUAAGUUAGCUAU` is recorded as 0.79.
Under “RBNS enrichment (R)”, `UCCCUGUGCAGACAGGACUAUGGUCUUCUUGCCCAAAGACUUUCAUCUGGACUGUCUAUAGAGUAAAUAUGCUCUCAUGGUUCAUGCGACCCCUGGUGGCUGGAGUAAGC` is recorded as 0.29.
`UAAAUGUGGGCUCCCUGUUAAGUGGGGCUCAUGGAUACGAGGCCUGAGGAAGUGUGGCUUGCUAGUCUGUUACGUUAACAUGCUUUUCUAAAAUUGCUUCACGUGUUAAU` — result for “RBNS enrichment (R)”: 0.49.
For `AAACUCCGUCUUCAUGUUUACCAUGGAGAGUUUUACAGAAAUCGGGCUGCACUCUGGGAGUGCUUACUCACAGUUUAUUUGCUUUUUUUAAAAAGGAGAUUAUUCUAAAA`, “RBNS enrichment (R)” read 0.395.
For `CUUUGUCCUCCGCUAAGAGACCCUGCCCUACCUGGCCGCUGGGCCCCGUGACUUUCCCUUCCUGCCCAGGAAAGUGAGGGUCGGCUGGCCCCACCUUCCCUGUCCUGAUG`, “RBNS enrichment (R)” read 0.193.

Block 4 — method: protein-binding microarray; molecule type: double-stranded DNA, one strand shown; sample: in vitro; tested at: 250 nM; setting: 60-bp whole probe; with: salmon DNA 0.4 mg/ml; relative to: random background probes; direction: higher = stronger binding; constant ends, left off below: GCCTAGCAC … GTCTTGATTCGCTTGACGCTGCTG
Target: Interferon regulatory factor 5, full length, phosphomimetic (IRF5, Homo sapiens, UniProt Q13568-2, residues 1-514, K96S/S451D/S453D/S456D/S462D)
`GACGATTTCAGTCTCGAGAAGTGCTAG` has a log fluorescence of 1.59 z-score.
The log fluorescence of `TTAGGTATCGGTAGCGGTTAGTGCTAG` is reported as 5.97 z-score.
The log fluorescence of `GACGGGCTGGACACTGGGGACGTGCTA` is reported as -0.686 z-score.
`TGTGGGTTTCGGTGTGGGAGGTGCTAG` has a log fluorescence of 8.57 z-score.
`GACGAACCGGGGTATCGAGACGTGCTA` gave a log fluorescence of 0.273 z-score.
`TCAATTTTCAGTATTACACTGTGCTAG` has a log fluorescence of 2.93 z-score.
`TTAGATATCGGGACTGGATTTGTGCTA` gave a log fluorescence of 1.35 z-score.
For `TTAGATTTAAGTTTCGATTAGTGCTAG`, the log fluorescence was 9.66 z-score.
The log fluorescence of `CCTAGCCTCCCAGCCCAGCAGTGCTAG` is reported as -0.72 z-score.
The log fluorescence of `TTAGGACTAGGGTATCGGTTAGTGCTA` is reported as 1.8 z-score.
The log fluorescence of `ATAGGTTTCGACTTTCGGTTAGTGCTA` is reported as 10.4 z-score.
`TTAGACCTGAGTCTCGATTAGTGCTAG` gave a log fluorescence of 0.431 z-score.
With `TTAGATATCGGGGCTGGATTAGTGCTA` the log fluorescence was 0.836 z-score.
`TTAGGTTTCGCTATCGGTTAGTGCTAG` has a log fluorescence of 9.96 z-score.
With `TCAGTTTCTCCTTTCGGACTGTGCTAG` the log fluorescence was 5.76 z-score.
The log fluorescence of `TTAGGACTGGGTCTCGGATAGTGCTAG` is reported as -0.265 z-score.
`TTTGATATCGGGACTGGATTAGTGCTA` has a log fluorescence of 2.09 z-score.
With `TTAGGATTGGGACTGGGTTAGTGCTAG` the log fluorescence was -0.0702 z-score.

Some of these lines once more (block 1):
The E-score of `GCCATCGC` is reported as 0.205.
`GACCCTAA` gave an E-score of -0.179.
With `ATTGAGTA` the E-score was -0.114.
For `GGGGACCC`, the E-score was -0.0246.
`GCCGTTCA` gave an E-score of 0.195.
`CACGACCA` has an E-score of -0.218.
With `GGGGAGAC` the E-score was -0.0282.
`CGCGTCCC` gave an E-score of 0.2.
For `AGGAGCGC`, the E-score was 0.233.
